Experimental data from different studies.
A part holds a random share of what one study measured.

Set 1 — technique: aptamer microarray, sandwich; molecule type: DNA with 2'F-ANA; sample: in vitro; tested at: 200 nM; together with: Cy3 exosite-II aptamer, 400 nM; direction: higher = stronger binding; oligonucleotide: GGTTGGTGTGGTTGG
Target: Prothrombin, mature alpha-thrombin (F2, Homo sapiens, UniProt P00734)
Notes: whole 15-mer aptamer, many near background
| Modification | mean fluorescence intensity |
| --- | --- |
| 2'F-ANA at 2 9 10 11 12 13 15 | 144 a.u. |
| 2'F-ANA at 5 10 11 12 15 | 49.4 a.u. |
| 2'F-ANA at 2 3 8 11 14 | 474 a.u. |
| 2'F-ANA at 1 3 4 6 7 8 10 12 13 14 15 | 92.6 a.u. |
| 2'F-ANA at 1 2 4 5 7 8 10 11 13 14 15 | 51.6 a.u. |
| 2'F-ANA at 2 3 4 5 8 9 14 15 | 49.6 a.u. |
| 2'F-ANA at 1 3 6 10 13 14 15 | 61.8 a.u. |
| 2'F-ANA at 1 2 3 4 6 7 8 10 11 13 | 54 a.u. |
| 2'F-ANA at 4 6 7 10 13 15 | 67.1 a.u. |
| 2'F-ANA at 3 5 6 10 14 15 | 45.3 a.u. |
| 2'F-ANA at 1 12 13 | 340 a.u. |
| 2'F-ANA at 1 5 6 7 10 11 13 15 | 44.3 a.u. |
| 2'F-ANA at 2 6 7 8 9 11 12 13 | 581 a.u. |
| 2'F-ANA at 1 3 5 7 9 10 | 50.3 a.u. |
| 2'F-ANA at 4 6 10 13 | 67.1 a.u. |
| 2'F-ANA at 1 3 5 6 10 13 14 15 | 49.1 a.u. |

Set 2 — technique: RNA Bind-n-Seq; molecule type: RNA; sample: in vitro; tested at: 200 nM; notes: whole 134-nt RNA, ends assumed; together with: 150 mM KCl; baseline: input library; direction: higher = stronger binding
Target: Ras GTPase-activating protein-binding protein 1, full length (G3BP1, Homo sapiens, UniProt Q13283)
UniProt Q13283, sequence (whole entry, looked up): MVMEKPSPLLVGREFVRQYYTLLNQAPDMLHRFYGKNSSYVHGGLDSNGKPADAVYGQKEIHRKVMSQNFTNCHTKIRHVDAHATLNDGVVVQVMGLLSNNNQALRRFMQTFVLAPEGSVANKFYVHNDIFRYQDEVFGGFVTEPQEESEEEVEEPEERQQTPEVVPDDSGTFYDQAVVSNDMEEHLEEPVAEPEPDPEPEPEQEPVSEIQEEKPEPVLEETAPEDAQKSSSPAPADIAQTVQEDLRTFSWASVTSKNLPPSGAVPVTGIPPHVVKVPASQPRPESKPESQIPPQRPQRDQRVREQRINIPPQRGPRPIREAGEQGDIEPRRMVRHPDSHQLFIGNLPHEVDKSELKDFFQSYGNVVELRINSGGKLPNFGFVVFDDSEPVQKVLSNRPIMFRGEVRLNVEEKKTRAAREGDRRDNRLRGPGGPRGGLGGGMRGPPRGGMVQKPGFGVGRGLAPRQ
Shared flanks, not repeated: GGGAGUUCUACAGUCCGACGAUC … UGGAAUUCUCGGGUGUCAAGG
| Oligonucleotide | log2 enrichment |
| --- | --- |
| UAAGUUUAGAGGAGGAUCUGAUGGAUAUGGCAGUGGACGUGGAUUUGGGGAUGGCUAUAAUGGGUAUGGAGGAGGACCUGGAGGUGGCAA | 0.278 |
| UUAAAGAAGAGGGUGUGCGGGACGUCCUUAAGGAUGUACUGCUCCCAUGGUACAAUGCCUAUCGCUUCUUAAUCCAGAACGUUCUGAGGC | -1.37 |
| GUCCUGUGCUACACAUCGUAUGUACCGAAUCGGGGAAAAAAAGGGGAAAGGGGAGGGGAAAGUAUUAUGUUACGCCGUUCGGAUCUGCAC | 0.222 |
| CAAGUCCUGUGCUACACAUCGUAUGUACCGAAUCGGGUGGGUUUGGGAAAAAGGGAAAGUAUUAUGUUACGCCGUUCGGAUCUGCACUUC | 0.726 |
| UCAAGUCCUGUGCUACACAUCGUAUGUACCGAAUCGGAAAGGAAAGGGGAAAGGAAAGUAUUAUGUUACGCCGUUCGGAUCUGCACUUCC | -0.868 |
| AAGUCCUGUGCUACACAUCGUAUGUACCGAAUCGGGUUUUUUUGGGUGGGAAAGGGAAAGUAUUAUGUUACGCCGUUCGGAUCUGCACUU | 0.075 |
| UGGGAGGUGGAUUUUGUUUAUUUUUUUAGCUCAUUUCCAGGGGUGGGAAUUUUUCUUUAAUAUGUGUCAUGAAUAAAGUUGUUUUUGAAA | 0.286 |
| AAGUCCUGUGCUACACAUCGUAUGUACCGAAUCGGGAAAGGGUUUGGGUUUUUGGGAAAGUAUUAUGUUACGCCGUUCGGAUCUGCACUU | -0.0137 |
| UUUCUUCUGCUGCUGCUAGUCAUGAGAUCAAGGUGGGUCUGAGAAUGGCCAUUCAGAGGCCCUGGAUAGUAACCAGGUAAUGGAUGACAC | -0.776 |
| UGUGAACUUGUAUGUGAAGAAUCUGGACGACUCCAUUGAUGACGACAAACUGAGGAAAGAGUUCUCUCCCUAUGGAGUAAUUACCAGUGC | 0.385 |
| CUCAAGUCCUGUGCUACACAUCGUAUGUACCGAAUCGGGCCGGCCGGGGCCGGAAAGUAUUAUGUUACGCCGUUCGGAUCUGCACUUCCA | -0.375 |
| UGGGAGGUGGAUUUUGUUUAUUUUUUUAGUUCAUUUCCAGGGGUGGGAAUUUUUUUUUAAUAUGUGUCAUGAAUAAAGUUGUUUUUGAAA | 0.0792 |
| UGGGAGGUGGAUUUUGUUUAUUUUUUUAGCUCAUUUCCAGGGGUGGGAAUUUUUUUUUAAUAUGUGUCAUGAAUAAAGUUGAUUUUGAAA | 0.413 |
| GCAGGAAGUAAAAACAAAUGGAAAUGCUUCUGAUAGUGGCAGGGGUGGGGGUUGCUAAGGAAAGGGUGGGAUGGGAGUGGGUAAAGAGUU | 1.13 |

Set 3 — technique: RNA Bind-n-Seq; molecule type: RNA; sample: in vitro; tested at: 365 nM; baseline: no-protein control; direction: higher = stronger binding
Target: RNA binding protein fox-1 homolog 2, RRM domain, GST-SBP tag (RBFOX2, Homo sapiens, UniProt O43251-10, residues 100-194)
Notes: natural RNA segment, single round, ends assumed
Shared flanks, not repeated: GGGAGUUCUACAGUCCGACGAUC … UGGAAUUCUCGGGUGCCAA
Residues (chain): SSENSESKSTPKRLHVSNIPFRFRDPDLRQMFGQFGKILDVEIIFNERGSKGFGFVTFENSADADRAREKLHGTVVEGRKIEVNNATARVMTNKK
| Oligonucleotide | RBNS enrichment (R) |
| --- | --- |
| UGUUCAGAAGGGAUCAAAAUUGCCAUCUAACAGGUACCUUAAAGGAUUCCUGGGCAUCUACUUCCACAACUAAUACGUAUUCCACAGUGUUGGCUGUUGGCUUCAAAAAA | 0.46 |
| GGUUGCCCCGGGACCGUGCUCAGCUGCUCUGCAUGCCCUGUCCUACUGACAGGUACCUUAGUUCUGUGUUCAUGUGGCCCUGACCCUUCCUUCAACCACACCUGGUCUCU | 1.18 |
| GUAGAAGACUUUCUGUUGAACUACUUAUAAGAAAGUAAAAUAAAUAUUGUCUUUUUGUAUGUCACCCAAAUGCUUUUUUUUUUGGUCUUAUUUUUUGGGGAAGCGUUGUG | 1.28 |
| UACUUUUUUCCUGUUGUGUUGAAUACUGGAGAAAUAGAAGGUUCAAGAUAGAGGCAGACCUGACUGUUUCUUGAGGGUCCAUCAGGCAUCUCCAGGAGCUGGCCAGUUAU | 0.338 |
| CACAGCAGCAAAGCACAGAGUGUGACCUUUUUCAUGUCUGAGCUGAUUCUGUUUGCUCCACGUGCCUGCUUCUUGCUACUGUUCAUUUAGUAAUGGGAUCACCUCACCAU | 0.461 |
| UAAGCAGAUCUCCUCCCCUGGACCAUGCAAGUCCCUCUCCUUGAAAUGACCACUCCGUAAUAGAACAUUUCAUUCCGUCAGCUGGCCCCCACUUCCUUUCACUCACGCAU | 0.567 |
| AAGAAAAACAUGUCUUUUCAAAAUGAGAGGCUUUCAUUGAAGAAAAGAAAAAAACAACAGUUAAAAGUUUUGGCUCUCUGUUUCAUUUUUUUCCAUUAAGAAAAAAAAAA | 0.9 |
| GUGGGUGGUGAUCCUUGUCAGGAUGUACAGUCCUUGCUCCCACCCCAUCCGGGAUGGCCGCCUGUCCCUGACUAUUGAGUCCUGUUGUUGUAAGCCAGGCAUGGAGGGCU | 1.23 |
| UUGCAUGAAGCUCCAGGAUUACAGUAAACUAAAUCAGUGCAAAAUAAAGUUUAUUUUAUAAAAGAAAGGCAAUAGACUAAUUUUUAUCUUAUGCUAAAUAACUUAUAUAG | 5.54 |
| UCUGUCUCAUGUUCGUGCAGAUUAUUACAGACACCUCUUUCCUUUAGCCAGAGAAUGGUUCAAAUGUCUUACAGAACUAAGAUCUUUUUCAGAGAAAUUGCUCACAAAAG | 0.385 |
| UGGCAUUAAAAUCUAGAUGCAUAGAGAUCCUUGCUAUGAGUUGUGGAUAGGAGUGGCUCCAUCUAUCCUUGUGGUGAAAGAGUCCAGGAGCUCCUUUAGAGAUUGUCAAG | 0.538 |
| AAGUUAAUGUGGGUCACCAUUUUGGUCAGAAGCAUACAUUCCUGUCAGACAACUAGUUGUCUGACAGAAAUGUUAGGCUUCAUGUAUGUUACCCCAGUACUGUUAGAAAC | 0.255 |

Set 4 — technique: protein-binding microarray; molecule type: double-stranded DNA, one strand shown; sample: in vitro; tested at: not given; direction: higher = stronger binding
Target: Protein C-ets-1 (ETS1, Homo sapiens, UniProt P14921, residues 1-441, K379A, full length assumed)
Notes: k-mer, scored over probes, only values ≥0.25
Construct (chain): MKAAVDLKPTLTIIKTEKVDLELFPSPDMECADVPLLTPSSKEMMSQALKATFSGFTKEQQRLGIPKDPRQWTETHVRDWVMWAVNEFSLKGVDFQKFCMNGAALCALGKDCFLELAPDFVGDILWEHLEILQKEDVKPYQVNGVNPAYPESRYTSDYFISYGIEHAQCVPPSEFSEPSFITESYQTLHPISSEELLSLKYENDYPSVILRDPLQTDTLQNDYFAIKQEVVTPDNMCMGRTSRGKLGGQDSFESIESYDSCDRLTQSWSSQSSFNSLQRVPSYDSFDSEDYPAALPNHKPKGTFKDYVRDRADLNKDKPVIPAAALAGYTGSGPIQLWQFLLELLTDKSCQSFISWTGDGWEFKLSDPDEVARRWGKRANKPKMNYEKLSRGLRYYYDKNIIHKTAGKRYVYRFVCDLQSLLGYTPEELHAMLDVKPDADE
| Oligonucleotide | E-score |
| --- | --- |
| TACATGTA | 0.259 |
| ACATACTA | 0.292 |
| CACGCCGG | 0.255 |
| CCGGCCCG | 0.254 |
| TCGACACA | 0.254 |
| CACCGGAA | 0.483 |
| ATCGTTAG | 0.254 |
| CCCCGGCA | 0.34 |
| ACCTCCCC | 0.304 |
| GTACTACA | 0.258 |
| CCGGTAAA | 0.463 |
| ACACGTAA | 0.285 |
| ACACACCG | 0.295 |
| GGTATACC | 0.261 |
| CCGGCGCG | 0.376 |
| AGTGTCGG | 0.349 |

Set 5 — technique: competition protein-binding microarray; molecule type: double-stranded DNA, one strand shown; sample: in vitro; tested at: 2 µM; together with: Cbf1 competitor, 0.05 µM; direction: higher = stronger binding; shared flanks, not repeated: … GTCTTGATTCGCTTGACGCTGCTG
Target: Phosphate system positive regulatory protein PHO4, full length, GST-tagged (PHO4, Saccharomyces cerevisiae, UniProt P07270, residues 1-312)
Notes: whole 60-bp probe, lowest competitor level
Residues (chain): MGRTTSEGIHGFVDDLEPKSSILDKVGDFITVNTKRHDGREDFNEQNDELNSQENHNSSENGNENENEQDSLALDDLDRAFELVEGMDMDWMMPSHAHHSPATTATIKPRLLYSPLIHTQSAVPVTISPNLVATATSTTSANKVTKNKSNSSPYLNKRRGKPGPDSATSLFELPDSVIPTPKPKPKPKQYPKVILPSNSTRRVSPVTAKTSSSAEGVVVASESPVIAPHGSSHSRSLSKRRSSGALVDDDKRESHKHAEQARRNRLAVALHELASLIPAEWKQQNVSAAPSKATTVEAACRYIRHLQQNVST
| Oligonucleotide | fluorescence intensity |
| --- | --- |
| TCTCATCCATTCCGTCACGCTTTGGTTGCCGGTATT | 7020 a.u. |
| CTCTTCTACAGTTACCACATGCAAAAGTCTTTCCTG | 8890 a.u. |
| AAATTACTAAGTTGTTCAGTGGGTGACGCCGTATGA | 4030 a.u. |
| CGGGGTTAAGTTTGTCACCGGACTTGCTTGCAGCAG | 3560 a.u. |
| CTTCTGTAAATTTTTCACGTGATCTGACGCGCCCCG | 10300 a.u. |
| GTCTTGTCTCATTTTCACGTGTCTTTCCCCACTTCA | 13600 a.u. |
| ACTTCTACTAAGAGTAACGTGGCCGAGAAGAGAAGA | 10900 a.u. |
| CATACCCAACCTTGGGACGTGGGTGAAGATATTTGT | 7500 a.u. |
| TTGTTCTTGATCGGCAGCATGACAAGGCTCTAAGTA | 4340 a.u. |
| CGGGGTTAAGTTTGTCACTTGACTTGCTTGCAGCAG | 3010 a.u. |
| CTTTCCCGATCTTGGAATGTGGGTGTAGCACATTTG | 6600 a.u. |
| TTCCAAATCCTTCTCCTCGTGGACCCCTTGGGCGAT | 10300 a.u. |
| TCATTTGGTGTCCATCACGTGGAATACCTCCCCTAT | 14600 a.u. |
| TGCATTGTTAAAAAGCACGTCTATGTGGTCTTCCAG | 7250 a.u. |
| GCAGACGACTAAAGCCATGGTCAAGCCTGGTAATCC | 2690 a.u. |
| CTGTCCAACGCCTGCAGCGTGGATGTGGAGGCGGAC | 6640 a.u. |
| CTTTCCCGATCTTGTCACGTAACTTTAGCACATTTG | 5200 a.u. |
| GAAACAATATAACAGCACGTGTTGGAACGGTACACA | 18400 a.u. |
| AGGTTGCCAGGGCTGCACGAGGAGTGGATTTCTGCT | 11000 a.u. |
| GGTGGGCTATACTTCCGTGTGACGGATTTCACAAAG | 5270 a.u. |
| AAAGCGGTAATTTGAAGCGTGGGTGCAGATATCTAT | 9550 a.u. |
| TTCACTAGGCAAATCCACGTGCTTTAGCATTTCCAT | 18500 a.u. |
| CATACCCAACCTTGTCACTTTACTTAAGATATTTGT | 3760 a.u. |
| AAAGCGGTAATTTGCTGGGTGGGTGCAGATATCTAT | 4340 a.u. |
| AACAATAACTGCCAAAACGTGGTGAACGGACGCTGA | 14200 a.u. |
